Published values pooled from the literature.
Numbered parts are unrelated; each lists some results of a single study.

Series 1
Target: Centromere-binding protein 1, full length, His-tagged (CBF1, Saccharomyces cerevisiae, UniProt P17106, residues 1-351)
UniProt P17106, sequence (whole entry, looked up): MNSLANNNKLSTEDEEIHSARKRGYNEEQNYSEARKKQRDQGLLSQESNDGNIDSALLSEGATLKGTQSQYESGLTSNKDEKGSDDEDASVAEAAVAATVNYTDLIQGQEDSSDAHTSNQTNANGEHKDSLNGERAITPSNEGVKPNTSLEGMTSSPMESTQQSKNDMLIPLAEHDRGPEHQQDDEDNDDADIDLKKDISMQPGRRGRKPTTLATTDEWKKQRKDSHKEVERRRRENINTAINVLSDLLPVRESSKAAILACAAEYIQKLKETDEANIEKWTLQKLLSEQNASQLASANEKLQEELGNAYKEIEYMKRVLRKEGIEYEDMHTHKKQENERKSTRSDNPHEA
Technique: competition protein-binding microarray
Form: double-stranded DNA, one strand shown
Matrix: in vitro
Concentration: 2 µM
Setting: whole 60-bp probe, lowest competitor level
Together with: Pho4 competitor, 0.05 µM
Reading: higher = stronger binding
With `CGGTCATCGGGCGCGCTCGTGGACGATGACAAGCGCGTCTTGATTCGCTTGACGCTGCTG` the fluorescence intensity was 62.2 a.u.
`GAAGGAGAGACTGTTCACATGCCTGAGGAAGATGACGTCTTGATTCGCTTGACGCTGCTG` gave a fluorescence intensity of 135 a.u.
The fluorescence intensity of `AAAGCGGTAATTTTTCACGTGCCTTCACATATCTATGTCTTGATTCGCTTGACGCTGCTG` is reported as 1330 a.u.
With `AAAGCGGTAATTTGCCTAGTGGGTGCAGATATCTATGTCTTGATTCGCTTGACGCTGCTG` the fluorescence intensity was 89.7 a.u.
`AGCTGGGACTATAGGCACGTGCCACCACACCCAGCTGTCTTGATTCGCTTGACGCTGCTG` gave a fluorescence intensity of 2100 a.u.
For `GTCTTGTCTCATTGTCGGGTGGGTGTCCCCACTTCAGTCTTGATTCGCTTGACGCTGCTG`, the fluorescence intensity was 67.9 a.u.
`CATACCCAACCTTTTCACGTGAGCTAAGATATTTGTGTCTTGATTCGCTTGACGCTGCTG` has a fluorescence intensity of 1190 a.u.
For `TGGGGTGTCTGCCATCACGCTTTCCATTTGCACTGTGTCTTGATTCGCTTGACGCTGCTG`, the fluorescence intensity was 98.2 a.u.
The fluorescence intensity of `CGAGCCTCTGAAAAGCACGCTCTAATAATTTTACATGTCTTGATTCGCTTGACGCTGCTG` is reported as 85 a.u.

Series 2
Target: Interferon regulatory factor 7, full length, phosphomimetic (IRF7, Homo sapiens, UniProt Q92985, residues 1-503, S101K/S471D/S472D/S475D/S476D/S477D/S483D/S484D/S487D)
Technique: protein-binding microarray
Form: double-stranded DNA, one strand shown
Matrix: in vitro
Concentration: 250 nM
Setting: 60-bp whole probe
Together with: salmon DNA 0.4 mg/ml
Relative to: random background probes
Reading: higher = stronger binding
Shared flanks, not repeated: GCCTAGCAC … GTCTTGATTCGCTTGACGCTGCTG
Target sequence (chain): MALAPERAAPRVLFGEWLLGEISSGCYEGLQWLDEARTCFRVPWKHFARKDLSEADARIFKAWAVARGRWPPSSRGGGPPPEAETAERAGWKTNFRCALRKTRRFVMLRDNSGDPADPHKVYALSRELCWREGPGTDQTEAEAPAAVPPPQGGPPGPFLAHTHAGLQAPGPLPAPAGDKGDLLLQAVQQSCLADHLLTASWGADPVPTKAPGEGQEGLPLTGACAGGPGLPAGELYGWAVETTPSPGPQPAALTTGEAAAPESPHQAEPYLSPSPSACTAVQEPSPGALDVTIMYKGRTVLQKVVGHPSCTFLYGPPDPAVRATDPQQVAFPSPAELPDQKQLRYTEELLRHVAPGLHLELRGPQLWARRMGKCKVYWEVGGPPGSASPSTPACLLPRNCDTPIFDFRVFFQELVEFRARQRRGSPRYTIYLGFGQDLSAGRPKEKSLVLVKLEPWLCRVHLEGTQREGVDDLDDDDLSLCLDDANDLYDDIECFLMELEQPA
`TCAGTTCTAAATATCTTACTGTGCTAG` gave a log fluorescence of 0.845 z-score.
`GACGGTTTCGGGAGTGGGGACGTGCTA` gave a log fluorescence of 2.33 z-score.
`TTAGCTCTCGGACTGGGTTAGTGCTAG` has a log fluorescence of -0.517 z-score.
The log fluorescence of `TGAGGACTGCTTTTCCTTTAGTGCTAG` is reported as 0.506 z-score.
With `GACGGGTTCGGGTATCGGGACGTGCTA` the log fluorescence was 0.841 z-score.
`GACGGAGTGCTTCTCCTGACGTGCTAG` gave a log fluorescence of -0.674 z-score.

Series 3
Target: Sal-like protein 4, full length isoform B (SALL4, Homo sapiens, UniProt Q9UJQ4-2, residues 1-616)
Technique: universal PBM
Form: double-stranded DNA, one strand shown
Matrix: in vitro
Concentration: not given
Setting: 8-mer, flanks averaged, mean of replicates
Reading: higher = stronger binding
The E-score of `GAGTAGAC` is reported as -0.0942.
For `AACACTCC`, the E-score was -0.00271.
The E-score of `ATTAAGAC` is reported as 0.218.
For `GGGCCGGA`, the E-score was -0.329.
With `ATTCCTGC` the E-score was 0.052.
`AAATTTAT` gave an E-score of 0.402.
For `AAGATTGG`, the E-score was 0.0823.

Mixed results
`PhoQ, residues 284 288 289 292 302 303 GASLAW` has a fold induction of 20.2 (PhoP, residues 12 14 15 18 19 LHHSG (Escherichia coli, UniProt P23836); Sort-seq, refers to: YFP reporter; E. coli; PhoQ-PhoP variant library, together with: 10 µM Mg2+; relative to: high Mg2+ state, higher = stronger signaling).
